Experimental data gathered from unrelated publications.
Every numbered part comes from another study and shows a few of its results, in no order.

Sample 1 — effect on: enzyme activity; action: inhibitor; concentration: 20 µM
Target: Replicase polyprotein 1ab, polymerase (rep, Severe acute respiratory syndrome coronavirus 2, UniProt P0DTD1)
| Compound | inhibition |
| --- | --- |
| CN1CC(=O)NC1=N | -0.91% |
| Clc1cccc(SC2CCNCC2)n1 | 9.08% |
| O=C(O)Cc1cccnc1C(=O)O | -9.37% |
| CN[C@@H](C)[C@H]1[C@H](O)C[C@@]2(C)[C@@H]3CC[C@H]4C(C)(C)[C@@H](NC)CC[C@@]45C[C@@]35CC[C@]12C | -0.94% |
| COc1ccc(-c2ccc3c(N4CCOC[C@@H]4C)nc(N4CCOC[C@@H]4C)nc3n2)cc1CO | 5.1% |
| Nc1nccc(-c2c(-c3ccc(F)cc3)ncn2C2CCCCC2)n1 | 0.06% |
| CC(C)(C)NC[C@H](O)c1ccc(O)c(CO)c1 | 1.45% |
| Cc1cc(O)cc(C)c1Cl | 3.66% |
| CC1(C)OC(=O)NC1=O | 12.6% |
| CCOC(=O)Nc1cc2c(c(N)n1)N=C(c1ccccc1)[C@H](C)N2 | 6.09% |
| O=S(=O)(O)Oc1ccc(C(c2ccc(OS(=O)(=O)O)cc2)c2ccccn2)cc1 | -2.26% |
| CCOC(=O)c1cncn1[C@H](C)c1ccccc1 | -6.27% |
| CCCOc1ccc(S(=O)(=O)N2CCN(CCO)CC2)cc1-c1nc2c(CCC)cn(CC)c2c(=O)[nH]1 | -8.93% |
| CC(C)c1ccc(NC(=O)c2cccs2)c(-c2nc3ccccc3[nH]c2=O)c1 | -12.5% |
| CO/N=C1\C[C@]2(C[C@@H]3C[C@@H](C/C=C(\C)C[C@@H](C)/C=C/C=C4\CO[C@@H]5[C@H](O)C(C)=C[C@@H](C(=O)O3)[C@]45O)O2)O[C@H](/C(C)=C/C(C)C)[C@H]1C | -11% |

Sample 2 — cell line: HEK-293T; organism: VSV pseudotyped with SARS-CoV-2 spike; concentration: 10 µM; time: 16 h
| Structure (SMILES) | pseudovirus infection |
| --- | --- |
| C=CCN1CC[C@]23c4c5ccc(O)c4O[C@H]2C(=O)CC[C@@]3(O)[C@H]1C5 | 106% |
| CCCN[C@H]1CCc2nc(N)sc2C1 | 105% |
| CNCCCC1c2ccccc2C=Cc2ccccc21 | 36.7% |

Sample 3 — technique: protein binding microarray; form: double-stranded DNA, one strand shown; sample: in vitro; concentration: not given; reference: not given; direction: higher = stronger binding
Target: Histone acetyltransferase KAT6A, winged helix 2, GST fusion (KAT6A, Homo sapiens, UniProt Q92794, residues 85-181)
Setting: 8-mer, flanks averaged, mean of 2 arrays, mostly near background
Target sequence (chain): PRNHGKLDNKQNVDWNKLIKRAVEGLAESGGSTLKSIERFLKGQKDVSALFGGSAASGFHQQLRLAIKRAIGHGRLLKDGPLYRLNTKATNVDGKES
| Oligonucleotide | E-score |
| --- | --- |
| ACAATGTA | 0.0186 |
| GTAATTCA | -0.0978 |
| CCTGCGGC | 0.101 |
| TATCATAA | -0.0372 |
| ACAGTATA | -0.184 |
| ATAAATAA | 0.138 |
| ATTTCGTC | 0.073 |
| AGGCTCGA | 0.0027 |

Sample 4 — technique: protein-binding microarray; form: double-stranded DNA, one strand shown; sample: in vitro; concentration: 940 nM top; setting: 60-bp whole probe; with: salmon DNA 0.4 mg/ml; reference: random background probes; direction: higher = stronger binding; all sequences stand within: GCCTAGCAC … GTCTTGATTCGCTTGACGCTGCTG
Target: Interferon regulatory factor 5, full length, phosphomimetic (IRF5, Homo sapiens, UniProt Q13568-2, residues 1-514, S451D/S453D/S456D/S462D)
| Oligonucleotide | fitted relative affinity |
| --- | --- |
| GAAGGTCACAAAGACTTCATGTGCTAG | -0.353 z-score |
| GACGATCTCAGTCTCGTGACGTGCTAG | 0.186 z-score |
| GACGATAACGGGACTGGAGACGTGCTA | -0.369 z-score |
| GGTGTTTTCTAAACCATTGTGTGCTAG | -0.0119 z-score |
| AACGGACTGGGTTTCGGGACGTGCTAG | 2.27 z-score |

Further values, each from its own experiment — effect on: enzyme activity; action: inhibitor; concentration: 10 µM
Target: Replicase polyprotein 1ab, 3C-like proteinase (rep, Middle East respiratory syndrome-related coronavirus, UniProt K9N7C7)
| Structure (SMILES) | inhibition [%] |
| --- | --- |
| C/N=c1/nc(-c2ccccc2)n(-c2ccccc2)s1 | 44 |
| Oc1cc2c(cc1O)[C@@H]1c3ccc(O)c(O)c3OC[C@]1(O)C2 | 5 |

Some of these lines once more (sample 4):
| Oligonucleotide | fitted relative affinity |
| --- | --- |
| GACGATAACGGGACTGGAGACGTGCTA | -0.369 z-score |
| AACGGACTGGGTTTCGGGACGTGCTAG | 2.27 z-score |
| GACGATCTCAGTCTCGTGACGTGCTAG | 0.186 z-score |
| GGTGTTTTCTAAACCATTGTGTGCTAG | -0.0119 z-score |
